# Assay results gathered from unrelated publications.
# Numbered parts are unrelated; each lists some results of a single study. Substitutions count along the parent as printed.

# Block 1 — technique: DHFR PCA, deep sequencing; medium: yeast; added: (+)-ABA 0 µM; relative to: wild-type fitted maximum; reading: higher = stronger binding
# Target: ABI1, truncated, D143A, DHFR fusion (Arabidopsis thaliana)
# Notes: methotrexate growth selection, single substitutions
# Starting sequence: PYL1, truncated, DHFR fusion (Arabidopsis thaliana); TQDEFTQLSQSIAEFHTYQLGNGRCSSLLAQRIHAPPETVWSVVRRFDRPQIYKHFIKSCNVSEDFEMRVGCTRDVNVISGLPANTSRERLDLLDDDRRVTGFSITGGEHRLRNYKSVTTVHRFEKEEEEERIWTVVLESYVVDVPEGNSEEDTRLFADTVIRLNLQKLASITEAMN; partner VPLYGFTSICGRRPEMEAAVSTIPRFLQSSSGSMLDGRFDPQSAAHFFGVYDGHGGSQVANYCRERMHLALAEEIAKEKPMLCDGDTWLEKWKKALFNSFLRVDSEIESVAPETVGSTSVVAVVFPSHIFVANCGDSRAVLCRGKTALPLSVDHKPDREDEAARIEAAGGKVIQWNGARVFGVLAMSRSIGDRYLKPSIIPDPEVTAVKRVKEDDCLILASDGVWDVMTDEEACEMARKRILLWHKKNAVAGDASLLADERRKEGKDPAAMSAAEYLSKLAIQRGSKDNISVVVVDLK
Change,relative binding score [%]
H16S,-1
D95L,-9.03
L138S,3.38
E129Y,10.2
E125L,6.8
L8W,7.44
I133M,26.4
Q7W,25
N85S,50.6
I105C,2.12
E64Q,28.7
N77T,62.5
I52V,43.2
I172V,47.2
V118T,25
R74Q,8.14
R155F,-9.35
S63L,2.83
E128T,25.7
M176P,0.579
K54H,0.117
K54N,-3.88
Q19S,25.8

# Block 2 — target: CCNE2, cyclin fold, Cln2 fusion (human); technique: yeast growth competition, sequencing; medium: yeast; notes: weak parent motif; relative to: not given; reading: higher = stronger binding
# Starting sequence: SAMHD1 docking peptide (human); ASKSRVQLFKDDP
Change,normalised enrichment score
R5G,0.282
R5L,-0.351
D12M,0.0388
V6Y,0.163
K10V,-0.0537
Q7C,-0.0159
S2E,0.259
K3C,-0.19
S4F,0.53
K3T,-0.159
S4L,0.191
K3L,0.329
Q7N,0.292
L8P,-0.0991
S4M,0.0894
K3P,-0.182
Q7S,-0.147
K3V,-0.0797
D12H,0.599
K3I,0.395
S4R,0.382
R5F,0.13
L8K,0.4
D11P,0.576
L8F,-0.0659

# Block 3 — target: JDP2, bZIP domain (human); technique: DHFR protein complementation; medium: yeast; relative to: wild-type JUN-FOS pair; reading: higher = stronger binding
# Notes: single substitutions, most at no-binding floor
# Starting sequence: JUN, bZIP domain (human); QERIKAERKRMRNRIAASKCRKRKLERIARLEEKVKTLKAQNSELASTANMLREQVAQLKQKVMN; partner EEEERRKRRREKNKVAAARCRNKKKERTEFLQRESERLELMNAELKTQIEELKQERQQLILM
Change,binding fitness [natural log]
I28Q,0.341
L31K,0.107
L45Y,0.216
A40F,0.301
E32K,0.201
R53K,0.276
R30T,0.399
T37S,0.272
R30L,0.297
T37I,0.314
R53V,0.258
A49F,0.139
S43F,0.254
I28P,0.291
K39H,0.295
A29V,0.0587
N42V,0.127
L38R,-0.0072

# Block 4 — technique: aptamer microarray, sandwich; molecule type: DNA with 2'F-ANA; medium: in vitro; tested at: 200 nM; added: Cy3 exosite-II aptamer, 400 nM; reading: higher = stronger binding; strand: GGTTGGTGTGGTTGG
# Target: Prothrombin, mature alpha-thrombin (F2, Homo sapiens, UniProt P00734)
# Notes: whole 15-mer aptamer, many near background
Modification,mean fluorescence intensity [a.u.]
2'F-ANA at 1 2 3 4 5 12 13 14 15,67.1
2'F-ANA at 7 9 10 11 12 13 14 15,106
2'F-ANA at 4 6 10 15,74.2
2'F-ANA at 5 6 7 8 9 10 12 14,46.2
2'F-ANA at 2 5 6 7 9 10 11 13 15,44.3
2'F-ANA at 1 2 3 4 6 8 14,65.1
2'F-ANA at 4 6 8 13,204
2'F-ANA at 1 3 5 6 8 9 11 13 14,48.3
2'F-ANA at 1 2 4 5 6 8 10 12,50.8
2'F-ANA at 2 6 7 8 10 11 12 13 15,227
2'F-ANA at 5 6 11 12 13 14,105
2'F-ANA at 1 2 3 4 5 6 9 10 12 15,50.9
2'F-ANA at 2 5 10 11 12 13 14 15,57.4
2'F-ANA at 1 3 5 7 11 13 15,49.5
2'F-ANA at 1 2 4 6 7 8 10 11 12 13 15,57.1
2'F-ANA at 1 4 7 8 10 12 13,59.6
2'F-ANA at 1 2 5 13,47.3
2'F-ANA at 2 4 5 6 9 10,58.5
2'F-ANA at 1 2 5 6 8 9 11 12 13 14,51.8
2'F-ANA at 2 3 4 5 8 12 13,130
2'F-ANA at 2 4 7 10 11 12 15,119
2'F-ANA at 2 3 4 5 7 8 9 13 14 15,66
2'F-ANA at 1 2 6 7 8 11 14,55.1
2'F-ANA at 1 3 4 8 9 10 14,51.3

# Excerpt of the above (block 2):
Change,normalised enrichment score
S2E,0.259
K3V,-0.0797
K3I,0.395
S4L,0.191
Q7S,-0.147
D11P,0.576
K3P,-0.182
S4R,0.382
L8F,-0.0659
K3T,-0.159
S4M,0.0894
D12H,0.599
L8K,0.4
Q7C,-0.0159
L8P,-0.0991
